Experimental data of several laboratories.
Compare with care: the assays were run in different laboratories. Converted amounts (≈) assume the structure as drawn.
Organism: Mycobacterium tuberculosis

| Structure (SMILES) | assay | test system | setting | measurement | result |
| --- | --- | --- | --- | --- | --- |
| CCCCCCCCCCC(C)(C)C(=O)NS(=O)(=O)OC[C@H]1O[C@@H](n2cnc3c(N)ncnc32)[C@H](O)[C@@H]1O | broth microdilution | H37Rv, GAST medium | MIC at >99% growth inhibition | MIC | 12.5 to 25 µM (≈ 6.96 to 13.9 µg/mL) |
| NCC[C@H](O)C(=O)N[C@@H]1C[C@H](N)[C@@H](O[C@H]2O[C@H](CN)[C@@H](O)[C@H](O)[C@H]2O)[C@H](O)[C@H]1O[C@H]1O[C@H](CO)[C@@H](O)[C@H](N)[C@H]1O | microbial growth, resazurin | H37RV |  | IC50 | 0.072 µg/mL |
| O=C(OCc1ccccc1)[C@@H]1CSC(c2ccccc2)=N1 | microplate alamar blue | H37Rv (ATCC 27294), GAS medium | replicating bacteria, range | MIC | 9.1 to 18.3 µM (≈ 2.71 to 5.44 µg/mL) |
| CC(C)=CCCC(C)=CCNCCNC1(C)C2CC3CC(C2)CC1C3 (stereo not drawn) | growth | H37Rv |  | IC50 | 2000 nM |
| NNC(=O)c1ccncc1 |  | H37Rv, GAST-Fe medium | 2 weeks, pH 6.6 | MIC | 0.2 to 0.4 µM (≈ 0.0274 to 0.0549 µg/mL) |
| CCCCCCCCCOCC(=O)NS(=O)(=O)OC[C@H]1O[C@@H](n2cnc3c(N)ncnc32)[C@H](O)[C@@H]1O | broth microdilution | H37Rv, GAST medium | MIC at >99% growth inhibition | MIC | 0.098 to 3.13 µM (≈ 0.052 to 1.66 µg/mL) |
| Clc1ccc(NCc2ccc(Oc3ccccn3)cc2)cc1 |  | H37Rv, GAST-Fe medium | 2 weeks, pH 6.6 | MIC | 20 to 40 µM (≈ 6.22 to 12.4 µg/mL) |
| Cc1ccn2c(C(=O)NCc3ccccc3)c(C)nc2c1 | microplate alamar blue | H37Rv (ATCC 27294), GAS medium | replicating bacteria, range | MIC | 0.4 to 1.1 µM (≈ 0.112 to 0.307 µg/mL) |
| Fc1ccc(NCc2ccc(Oc3ccccn3)cc2)cc1 |  | H37Rv, GAST-Fe medium | 1 weeks, pH 6.6 | MIC | 19 µM (≈ 5.59 µg/mL) |
| O=C(OCc1ccccc1)c1cc(-c2ccccc2)[nH]n1 | microplate alamar blue | H37Rv (ATCC 27294), GAS medium | replicating bacteria, range | MIC | 1.8 to 4.3 µM (≈ 0.501 to 1.2 µg/mL) |
| Clc1cccc(NCc2ccc(Oc3ccccn3)cc2)c1 |  | H37Rv, 7H9/ADC/Tween medium | 2 weeks | MIC | 80 µM (≈ 24.9 µg/mL) |
| CC(C)=CCC/C(C)=C/CNCCNC1C2CC3CC(C2)CC1C3 (stereo not drawn) | growth | HN878 |  | IC50 | 400 to 1000 nM |

Excerpt of the above:
| Structure (SMILES) | assay | test system | setting | measurement | result |
| --- | --- | --- | --- | --- | --- |
| CCCCCCCCCOCC(=O)NS(=O)(=O)OC[C@H]1O[C@@H](n2cnc3c(N)ncnc32)[C@H](O)[C@@H]1O | broth microdilution | H37Rv, GAST medium | MIC at >99% growth inhibition | MIC | 0.098 to 3.13 µM (≈ 0.052 to 1.66 µg/mL) |
